Assay results from different studies.
≈ marks a conversion by molar mass, not a printed value.

Sequences of proteins named here, by UniProt entry; tags and fusion partners are left off.
UniProt Q9BXM7, whole entry, looked up: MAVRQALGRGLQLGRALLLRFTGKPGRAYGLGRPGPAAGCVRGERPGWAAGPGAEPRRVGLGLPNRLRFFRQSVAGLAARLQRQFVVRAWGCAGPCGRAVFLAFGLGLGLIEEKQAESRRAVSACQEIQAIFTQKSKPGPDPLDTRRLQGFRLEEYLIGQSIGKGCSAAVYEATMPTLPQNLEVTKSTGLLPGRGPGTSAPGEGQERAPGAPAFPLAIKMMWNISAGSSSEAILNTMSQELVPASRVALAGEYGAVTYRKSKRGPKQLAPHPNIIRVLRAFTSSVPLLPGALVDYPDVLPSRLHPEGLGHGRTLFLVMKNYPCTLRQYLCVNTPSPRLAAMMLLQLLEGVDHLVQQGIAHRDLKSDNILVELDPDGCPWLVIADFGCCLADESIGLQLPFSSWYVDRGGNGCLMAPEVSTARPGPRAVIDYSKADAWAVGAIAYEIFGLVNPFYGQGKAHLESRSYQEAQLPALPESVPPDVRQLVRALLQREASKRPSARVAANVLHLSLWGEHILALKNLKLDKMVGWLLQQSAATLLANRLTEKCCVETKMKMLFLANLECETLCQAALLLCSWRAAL
UniProt P45983, whole entry: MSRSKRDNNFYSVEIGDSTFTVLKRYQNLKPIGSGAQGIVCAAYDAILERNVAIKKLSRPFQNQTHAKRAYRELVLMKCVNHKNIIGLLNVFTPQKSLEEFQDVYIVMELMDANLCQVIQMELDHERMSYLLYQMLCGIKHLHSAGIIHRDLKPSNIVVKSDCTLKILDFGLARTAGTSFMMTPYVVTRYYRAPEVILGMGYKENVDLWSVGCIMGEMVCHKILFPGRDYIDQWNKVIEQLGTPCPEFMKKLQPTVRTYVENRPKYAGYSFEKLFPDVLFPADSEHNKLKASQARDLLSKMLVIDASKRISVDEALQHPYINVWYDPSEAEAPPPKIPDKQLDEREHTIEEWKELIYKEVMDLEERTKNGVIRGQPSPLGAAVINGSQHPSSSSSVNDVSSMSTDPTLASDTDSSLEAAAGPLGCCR

| Structure (SMILES) | tested on | assay | test system | setting | how to read | endpoint | result |
| --- | --- | --- | --- | --- | --- | --- | --- |
| CC(C)COc1ccc2nc3ccc(=O)cc-3oc2c1 | Mycobacterium tuberculosis | – | mc2 6206 PA-824-resistant ddn mutant | 7 days | – | MIC90 | 8.4 µM (≈ 2.26 µg/mL) |
| CCN1CCN(Cc2ccc(NC(=O)c3ccc(C)c(/C=C/c4cnc5[nH]ccc5c4OC)c3)cc2C(F)(F)F)CC1 | PINK1 (Homo sapiens, UniProt Q9BXM7) | inhibitor, cell-based kinome screen | human cells | 5 µM | relative to: vehicle | log2 fold change | 0.328 |
| CC1(C)CCC(Cc2cc(O)c(-c3ccccc3)c(=O)[nH]2)CC1 | Mycobacterium tuberculosis | bactericidal activity | replicating | – | – | rapid killing concentration | > 0.2 µM |
| Nc1ccc(C(=O)O)c(O)c1 | Mycobacterium bovis | – | BCG Tac^r7.1, thyA A148E missense | TA-C-resistant thyA mutant | – | MIC50 | > 100 µM |
| O=c1ccc2nc3ccc(OCCCCF)cc3oc-2c1 | Mycobacterium tuberculosis | – | mc2 6206 PA-824-resistant ddn mutant | 7 days | – | MIC90 | 17 µM (≈ 4.88 µg/mL) |
| O=[N+]([O-])c1ccc(N2CCN(c3ccc([N+](=O)[O-])cc3[N+](=O)[O-])CC2)c([N+](=O)[O-])c1 | Candida albicans | – | clinical isolate | – | – | MIC | > 500 µg/mL |
| O=c1ccc2nc3ccc(OCC4CCOCC4)cc3oc-2c1 | Mycobacterium tuberculosis | – | mc2 6206 bedaquiline-resistant MmpL5 regulator mutant | 7 days | – | MIC90 | 243 µM (≈ 75.7 µg/mL) |
| CO[C@H]1/C=C/O[C@@]2(C)Oc3c(C)c(O)c4c(O)c(c(/C=N/N5CCN(C)CC5)c(O)c4c3C2=O)NC(=O)/C(C)=C\C=C\[C@H](C)[C@H](O)[C@@H](C)[C@@H](O)[C@@H](C)[C@H](OC(C)=O)[C@@H]1C | Mycobacterium bovis | – | BCG Tac^r10.2, thyA mutant | TA-C-resistant thyA mutant | – | MIC50 | 0.0016 µM (≈ 0.00132 µg/mL) |
| CCC(C)C1NC(=O)/C(=C(/C)O)C1=O (centres unmarked) | Arabidopsis thaliana | apo-pHusion EGFP/mRFP1 ratio | elongating root cells | 10 µM | – | apoplastic pH increase | 0.1 |
| O=[N+]([O-])c1cn2c(n1)OC[C@@H](OCc1ccc(OC(F)(F)F)cc1)C2 | Mycobacterium bovis | – | BCG Tac^r7.2, thyA W133S missense | TA-C-resistant thyA mutant | – | MIC50 | 0.2 µM (≈ 0.0719 µg/mL) |
| CC#C/C(=N\OC[C@H]1COCCN1)c1ccc2ncnc(Nc3ccc(OCc4cccc(F)c4)c(Cl)c3)c2c1 | MAPK8 (Homo sapiens, UniProt P45983) | kinase activity | – | 10 µM | – | inhibition | 4.8% |
